Assay results of several laboratories.
Lines come from different studies, so protocols differ. Values joined by “and” are separate records of one study, mostly repeats; a detail may differ.

O=C(NC1CCC(F)(F)CC1)C(c1cncnc1)N(C(=O)C(F)Cl)c1ccc(-c2cncs2)cc1 (stereo not drawn)
remaining compound (human liver microsomes; concentration not given, 0.1667 h, pH 7.4): 83.3%

Cc1ccc(C(C)C)cc1.O=C(N=P(c1ccccc1)(c1ccccc1)c1ccccc1)c1[c-]cccc1.[Cl-].[Ru+2]
remaining intact compound (DMSO-d6; 1 month): 0%

CC[C@H](C)[C@H](NC(=O)[C@H](Cc1ccccc1)NC(=O)[C@H](CCC(=O)O)NC(=O)[C@H](CCCCN)NC(=O)[C@H](C)NC(=O)[C@H](C)NC(=O)[C@H](CCC(N)=O)NC(=O)CNC(=O)[C@H](CCC(=O)O)NC(=O)[C@H](CC(C)C)NC(=O)[C@H](Cc1ccc(O)cc1)NC(=O)[C@H](CO)NC(=O)[C@H](CO)NC(=O)[C@@H](NC(=O)[C@H](CC(=O)O)NC(=O)[C@H](CO)NC(=O)[C@@H](NC(=O)[C@H](Cc1ccccc1)NC(=O)[C@@H](NC(=O)CNC(=O)[C@H](CCC(=O)O)NC(=O)[C@H](C)NC(=O)[C@@H](N)Cc1c[nH]cn1)[C@@H](C)O)[C@@H](C)O)C(C)C)C(=O)N[C@@H](C)C(=O)N[C@@H](Cc1c[nH]c2ccccc12)C(=O)N[C@@H](CC(C)C)C(=O)N[C@H](C(=O)N[C@@H](CCCNC(=N)N)C(=O)NCC(=O)N[C@@H](CCCNC(=N)N)C(=O)NCC(=O)O)C(C)C
remaining peptide (HPLC-UV; Tris-HCl buffer; 0.1 mmol/l, 4 h, pH 7.4, 37 °C): < 5%

CC[C@H](C)[C@@H](C(=O)N[C@@H](CC(C)C)C(=O)N[C@@H](CO)C(=O)N[C@@H](CO)C(=O)N[C@H](C(=O)N[C@@H](CCC(=O)O)C(=O)N[C@H](C(=O)NCC(=O)N[C@@H](CO)C(=O)NCC(=O)N[C@H](C(=O)N1C[C@H](O)C[C@H]1C(N)=O)[C@@H](C)O)C(C)C)[C@@H](C)O)N(C)C(=O)[C@H](C)NC(=O)CN(C)C(=O)[C@H](Cc1ccccc1)NC(=O)[C@H](CO)NC(=O)[C@H](CO)NC(=O)[C@H](CCCNC(=N)N)NC(=O)[C@@H](NC(=O)[C@H](CC(C)C)NC(=O)[C@H](Cc1ccccc1)NC(=O)[C@H](Cc1c[nH]cn1)NC(=O)[C@H](C)NC(=O)[C@H](CC(C)C)NC(=O)[C@H](CCCNC(=N)N)NC(=O)[C@H](CCC(=O)O)NC(=O)[C@@H](NC(=O)[C@H](C)NC(=O)[C@@H]1CSSC[C@H](NC(=O)[C@H](CCCNC(=N)N)NC(=O)CC[C@H](NC(=O)CCCCCCCCCCCCCCCCCCC(=O)O)C(=O)O)C(=O)NCC(=O)N[C@@H]([C@@H](C)O)C(=O)N[C@@H](C)C(=O)N[C@@H]([C@@H](C)O)C(=O)N1)[C@@H](C)O)[C@@H](C)O
remaining main peak (RP-HPLC; water; 7 days, pH 6.0, 40 °C): 94 area %

C=CC(=O)Nc1cc(Nc2nccc(-c3cn(C)c4ccccc34)n2)c(OC)cc1N(C)CCNC
remaining amount (storage stability; human dried blood spot; 270 ng/mL, 24 h, -80 °C, HQC level): 99.2%

CC(C)(C)[Si](C)(C)Oc1ccc(COC(=O)NNc2ccccc2)cc1
remaining fraction (PBS; 23 h, 37 °C; relative to: initial amount): 0.92 and 0.86 and 0.87

N=C(N)NCCC[C@@H]1NC(=O)[C@H](CCCNC(=N)N)NC(=O)[C@@H](CCCNC(=N)N)NC(=O)[C@@H](CCCNC(=N)N)NC(=O)[C@@H](C(c2ccccc2)c2ccccc2)NC(=O)[C@H](Cc2c[nH]c3ccccc23)NC(=O)[C@@H](C(c2ccccc2)c2ccccc2)NC1=O
remaining peptide (LC-MS; human plasma; 6 h): 59.1%

CC[C@H](C)[C@@H](C(=O)N[C@@H](CC(C)C)C(=O)N[C@@H](CO)C(=O)N[C@@H](CO)C(=O)N[C@H](C(=O)N[C@@H](CCC(=O)O)C(=O)N[C@H](C(=O)NCC(=O)N[C@@H](CO)C(=O)N[C@@H](CO)C(=O)N[C@H](C(=O)N1C[C@H](O)C[C@H]1C(N)=O)[C@@H](C)O)C(C)C)[C@@H](C)O)N(C)C(=O)[C@H](C)NC(=O)CN(C)C(=O)[C@H](Cc1ccccc1)NC(=O)[C@H](CO)NC(=O)[C@H](CO)NC(=O)[C@H](CCCNC(=N)N)NC(=O)[C@@H](NC(=O)[C@H](CC(C)C)NC(=O)[C@H](Cc1ccccc1)NC(=O)[C@H](Cc1c[nH]cn1)NC(=O)[C@H](C)NC(=O)[C@H](CC(C)C)NC(=O)[C@H](CCCNC(=N)N)NC(=O)[C@H](CCC(=O)O)NC(=O)[C@@H](NC(=O)[C@H](C)NC(=O)[C@@H]1CSSC[C@H](NC(=O)[C@H](CCCNC(=N)N)NC(=O)CC[C@H](NC(=O)CCCCCCCCCCCCCCCCCCC(=O)O)C(=O)O)C(=O)NCC(=O)N[C@@H]([C@@H](C)O)C(=O)N[C@@H](C)C(=O)N[C@@H]([C@@H](C)O)C(=O)N1)[C@@H](C)O)[C@@H](C)O
remaining main peak (RP-HPLC; water; 7 days, pH 6.0, 40 °C): 87 area %

Cc1ccc(C(C)C)cc1.F[P-](F)(F)(F)(F)F.O=C(N=P(c1ccccc1)(c1ccccc1)c1ccccc1)c1ccccn1.[Cl-].[Ru+2]
remaining intact compound (DMSO-d6; 2 weeks): > 99%

CCN(CC)CC#CCNc1ccnc2cc(Cl)ccc12
remaining parent (human hepatocytes; 10 µM, 30 min; relative to: time zero): 54.6%

CC(C)(C)[C@H](NC(=O)c1ccc(Oc2ccc(C(=O)N[C@H]3CCCC[C@@H]3O)cc2)cc1)C(=O)NCCN1CCCC1
remaining compound (human liver microsomes; 1 µM, 10 min, pH 7.4): 93.2%

CC[C@H](C)[C@@H](C(=O)N[C@@H](CC(C)C)C(=O)N[C@@H](CO)C(=O)N[C@@H](CO)C(=O)N[C@H](C(=O)N[C@@H](CCC(=O)O)C(=O)N[C@H](C(=O)NCC(=O)N[C@@H](CO)C(=O)N[C@@H](CC(N)=O)C(=O)N[C@H](C(=O)N1C[C@H](O)C[C@H]1C(N)=O)[C@@H](C)O)C(C)C)[C@@H](C)O)N(C)C(=O)[C@H](C)NC(=O)CN(C)C(=O)[C@H](Cc1ccccc1)NC(=O)[C@H](CO)NC(=O)[C@H](CO)NC(=O)[C@H](CCCNC(=N)N)NC(=O)[C@H](CCC(N)=O)NC(=O)[C@H](CC(C)C)NC(=O)[C@H](Cc1ccccc1)NC(=O)[C@H](Cc1c[nH]cn1)NC(=O)[C@H](C)NC(=O)[C@H](CC(C)C)NC(=O)[C@H](CCCNC(=N)N)NC(=O)[C@H](CCC(=O)O)NC(=O)[C@@H](NC(=O)[C@H](C)NC(=O)[C@@H]1CSSC[C@H](NC(=O)[C@H](CCCNC(=N)N)NC(=O)CC[C@H](NC(=O)CCCCCCCCCCCCCCCCCCC(=O)O)C(=O)O)C(=O)NCC(=O)N[C@@H]([C@@H](C)O)C(=O)N[C@@H](C)C(=O)N[C@@H]([C@@H](C)O)C(=O)N1)[C@@H](C)O
remaining main peak (RP-HPLC; water; 7 days, pH 7.5, 40 °C): 90 area %

C#Cc1c(F)ccc2cc(O)cc(-c3ncc4c(N5CC6CCC(C5)N6C(=O)OC(C)OC(=O)CC[C@@H](C)[C@H]5CC[C@H]6[C@@H]7CC[C@@H]8C[C@H](O)CC[C@]8(C)[C@H]7C[C@H](O)[C@]56C)nc(OC[C@@]56CCCN5C[C@H](F)C6)nc4c3F)c12 (stereo partly drawn)
remaining prodrug (simulated gastric fluid; 1 µM, 30 min, 37 °C): 100%

O=C(NC1CCC(F)(F)CC1)C(c1cncnc1)N(C(=O)C(F)Cl)c1ccc(OC(F)(F)F)cc1 (stereo not drawn)
remaining compound (human liver microsomes; concentration not given, 0.75 h, pH 7.4): 95.9%

CC[C@H](C)[C@@H](C(=O)N[C@@H](CC(C)C)C(=O)N[C@@H](CO)C(=O)N[C@@H](CO)C(=O)N[C@H](C(=O)N[C@@H](CCC(=O)O)C(=O)N[C@H](C(=O)NCC(=O)N[C@@H](CO)C(=O)N[C@@H](CO)C(=O)N[C@H](C(=O)N1C[C@H](O)C[C@H]1C(N)=O)[C@@H](C)O)C(C)C)[C@@H](C)O)N(C)C(=O)[C@H](C)NC(=O)CN(C)C(=O)[C@H](Cc1ccccc1)NC(=O)[C@H](CO)NC(=O)[C@H](CO)NC(=O)[C@H](CCCNC(=N)N)NC(=O)[C@H](CCC(N)=O)NC(=O)[C@H](CC(C)C)NC(=O)[C@H](Cc1ccccc1)NC(=O)[C@H](Cc1c[nH]cn1)NC(=O)[C@H](C)NC(=O)[C@H](CC(C)C)NC(=O)[C@H](CCCNC(=N)N)NC(=O)[C@H](CCC(=O)O)NC(=O)[C@@H](NC(=O)[C@H](C)NC(=O)[C@@H]1CSSC[C@H](NC(=O)[C@H](CCCNC(=N)N)NC(=O)CC[C@H](NC(=O)CCCCCCCCCCCCCCCCCCC(=O)O)C(=O)O)C(=O)NCC(=O)N[C@@H]([C@@H](C)O)C(=O)N[C@@H](C)C(=O)N[C@@H]([C@@H](C)O)C(=O)N1)[C@@H](C)O
remaining main peak (RP-HPLC; water; 7 days, pH 6.0, 40 °C): 86 area %
